{"data": "Results from different studies", "NPY1R": "Neuropeptide Y receptor type 1 (NPY1R, Homo sapiens, UniProt P25929)", "note": "Several values in a cell are separate wells, animals, samples, runs or records. Numbers after ± are the reported error."}
{"SMILES": "C[C@]12COc3ccc(OCC4CCCCC4)cc3[C@H]1CCN2", "target": "SIGMAR1 (Homo sapiens, UniProt Q99720)", "assay": "cell-free assay, radioligand", "Ki": "1.5 nM"}
{"SMILES": "CC(=O)N[C@@H](CCCNC(=N)N)C(=O)N[C@@H](Cc1ccc(O)cc1)C(=O)N[C@@H](CCCNC(=N)N)C(=O)N[C@@H](CC(C)C)C(=O)N[C@@H](CCCNC(=N)NC(=O)NCCCCN)C(=O)N[C@@H](Cc1ccc(O)cc1)C(N)=O", "target": "NPY1R", "assay": "ligand displacement, radioligand", "Ki": "1120 nM"}
{"SMILES": "CC[C@H](C)[C@H](NC(=O)CN)C(=O)N[C@H](C(=O)N[C@@H](CC(N)=O)C(=O)N[C@H](C(=O)N[C@@H](CC(C)C)C(=O)N[C@@H](CCC(N)=O)C(=O)N[C@@H](CCCCN)C(=O)N[C@@H](Cc1ccc(O)cc1)C(=O)N[C@@H](Cc1ccc(O)cc1)C(=O)N[C@H]1CSSC[C@@H]2NC(=O)[C@H](CCCCN)NC(=O)[C@H](CCCNC(=N)N)NC(=O)CNC(=O)[C@H](CCCNC(=N)N)NC(=O)[C@H]([C@@H](C)O)NC(=O)[C@H](CO)NC(=O)[C@@H]3CSSC[C@H](NC(=O)[C@H](CCCNC(=N)N)NC(=O)CNC(=O)CNC(=O)[C@H](CCCNC(=N)N)NC(=O)[C@H](C(C)C)NC(=O)[C@H](CCCNC(=N)N)NC1=O)C(=O)N[C@@H](C)C(=O)N[C@@H](C(C)C)C(=O)N[C@@H](CC(C)C)C(=O)N[C@@H](CO)C(=O)N[C@@H](CSSC[C@@H](C(=O)N[C@@H](CCCNC(=N)N)C(=O)N[C@@H](CCCNC(=N)N)C(=O)N[C@@H](CCCCN)C(=O)N[C@@H](CCCCN)C(N)=O)NC2=O)C(=O)N[C@@H](CC(C)C)C(=O)N1CCC[C@H]1C(=O)N[C@@H](CCCCN)C(=O)N[C@@H](CCC(=O)O)C(=O)N[C@@H](CCC(=O)O)C(=O)N[C@@H](CCC(N)=O)C(=O)N[C@@H]([C@@H](C)CC)C(=O)NCC(=O)N[C@@H](CCCCN)C(=O)N3)[C@@H](C)O)[C@@H](C)CC", "target": "MC1R (Homo sapiens, UniProt Q01726)", "assay": "ligand displacement in cells", "Ki": "42 nM"}
{"SMILES": "CCCc1ccc2c(c1)sc(=O)n2CCCCCN1CCCCCC1", "target": "Sigmar1 (Rattus norvegicus, UniProt Q9R0C9)", "assay": "binding, radioligand binding", "test system": "rat liver membranes", "conditions": "added: [3H](+)-pentazocine 5 nM", "Ki": "4.6 ± 0.4 nM"}
{"SMILES": "CC[C@H](C)[C@H](NC(=O)[C@@H]1CSSC[C@H](NC(=O)[C@H](Cc2ccc(O)cc2)NC(=O)CN)C(=O)N[C@@H](CO)C(=O)N[C@@H](CCCNC(=N)N)C(=O)N[C@@H](CO)C(=O)N[C@@H](Cc2ccc(O)cc2)C(=O)N2CCC[C@H]2C(=O)N2CCC[C@H]2C(=O)N[C@@H](C(C)C)C(=O)N1)C(=O)N1CCC[C@H]1C(=O)N[C@@H](CC(=O)O)C(N)=O", "target": "Mannan-binding lectin serine protease 2 (Homo sapiens, UniProt O00187)", "conditions": "added: 250 µM Z-L-Lys-SBzl substrate", "Ki": "170 nM"}
{"SMILES": "N=C(N)NC(=O)c1ccc(C(=O)NCCCC[C@H](NC(=O)[C@H](Cc2c[nH]c3ccccc23)NC(=O)[C@H](CCCCN)NC(=O)CNC(=O)CCC(=O)NN=Cc2cc(C=NNC(=O)CCC(=O)NCC(=O)N[C@@H](CCCCN)C(=O)N[C@@H](Cc3c[nH]c4ccccc34)C(=O)N[C@@H](CCCCNC(=O)c3ccc(C(=O)NC(=N)N)[nH]3)C(N)=O)cc(C=NNC(=O)CCC(=O)NCC(=O)N[C@@H](CCCCN)C(=O)N[C@@H](Cc3c[nH]c4ccccc34)C(=O)N[C@@H](CCCCNC(=O)c3ccc(C(=O)NC(=N)N)[nH]3)C(N)=O)c2)C(N)=O)[nH]1", "target": "Tryptase beta-2 (TPSB2, Homo sapiens, UniProt P20231)", "assay": "non-competitive inhibitor", "Ki": "22.5 nM and 22 nM"}
{"SMILES": "CC(C)Oc1ccc(B(O)O)c(F)n1", "target": "Beta-lactamase (ampC, Escherichia coli K-12, UniProt P00811)", "assay": "enzyme activity, inhibitor", "conditions": "added: CENTA", "Ki": "480 nM"}
{"SMILES": "COC(=O)C1=C(C)NC(C)=C(C(=O)OC)C1c1cccc(NC(=O)NCCCN2CCC(c3cccc(OC)c3)CC2)c1", "target": "NPY1R", "assay": "ligand displacement, radioligand", "conditions": "cell membranes", "Ki": "22 nM"}
{"SMILES": "CC(=O)N(C)[C@@H](Cc1ccccc1)C(=O)N[C@@H](Cc1ccccc1)C(=O)N[C@@H](Cc1ccc(O)cc1)C(=O)N[C@@H](CCCNC(=N)N)C(=O)N[C@@H](CC(C)C)C(=O)N[C@@H](CCCNC(=N)N)C(=O)N[C@@H](CCCNC(=N)N)C(=O)N[C@H](C)C(=O)N[C@@H](CCCNC(=N)N)C(=O)N1CCC[C@H]1C(=O)N[C@@H](CCCCN)C(N)=O", "target": "Oprk1 (Rattus norvegicus, UniProt P34975)", "assay": "ligand displacement, radioligand", "Ki": "37.3 nM"}
{"SMILES": "CC[C@H](C)CN(C[C@@H](O)[C@H](Cc1ccccc1)NC(=O)c1cccc(O)c1)S(=O)(=O)c1ccc2ncsc2c1", "target": "Gag-Pol polyprotein, protease (Human immunodeficiency virus type 1 group M subtype B, UniProt P03369, G538V/I544V/L500I/V572A)", "Ki": "0.724 ± 0.377 nM"}
{"note": "Some of these lines once more:"}
{"SMILES": "CC(C)Oc1ccc(B(O)O)c(F)n1", "target": "Beta-lactamase (ampC, Escherichia coli K-12, UniProt P00811)", "assay": "enzyme activity, inhibitor", "conditions": "added: CENTA", "Ki": "480 nM"}
